Results collected from several papers.
Numbered parts are unrelated; each lists some results of a single study. Changes are numbered by the printed parent chain.

Study 1 — method: protein-binding microarray; molecule type: double-stranded DNA, one strand shown; matrix: in vitro; concentration: 250 nM; notes: 60-bp whole probe; together with: salmon DNA 0.4 mg/ml; reference: random background probes; reading: higher = stronger binding; all sequences stand within: GCCTAGCAC … GTCTTGATTCGCTTGACGCTGCTG
Target: Interferon regulatory factor 7, full length, phosphomimetic (IRF7, Homo sapiens, UniProt Q92985, residues 1-503, S101K/S471D/S472D/S475D/S476D/S477D/S483D/S484D/S487D)
Residues (chain): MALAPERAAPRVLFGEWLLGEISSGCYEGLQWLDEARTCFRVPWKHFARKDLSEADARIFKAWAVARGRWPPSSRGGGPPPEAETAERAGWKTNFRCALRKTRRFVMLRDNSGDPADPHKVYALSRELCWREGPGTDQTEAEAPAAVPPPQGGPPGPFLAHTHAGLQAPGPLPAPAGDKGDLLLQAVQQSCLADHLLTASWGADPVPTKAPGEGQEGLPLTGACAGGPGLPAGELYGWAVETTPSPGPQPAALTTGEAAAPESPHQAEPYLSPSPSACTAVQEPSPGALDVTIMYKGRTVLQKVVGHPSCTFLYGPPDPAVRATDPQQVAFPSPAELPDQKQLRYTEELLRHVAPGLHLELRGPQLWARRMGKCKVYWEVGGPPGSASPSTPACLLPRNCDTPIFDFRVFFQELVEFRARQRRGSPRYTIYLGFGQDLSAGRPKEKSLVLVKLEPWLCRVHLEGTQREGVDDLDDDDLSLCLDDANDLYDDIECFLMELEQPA
Strand | log fluorescence [z-score]
GACGAACTGAGTATCGAGATGTGCTAG | 0.149
TCACCTCTAGGAATGTAACTGTGCTAG | 0.284
TCAGGTTTCCTACTGCTTTAGTGCTAG | 1.4
GACGAAGTGAGTTTCGAGACGTGCTAG | 3.27
TTAGATCTCAGGCTCGATTAGTGCTAG | 0.575
GACGATCTGAGTTTCGAGACGTGCTAG | 2.89
TTAGGTCTCGGTCTAGGTTAGTGCTAG | 1.09
GACGGTCTCCTTTTCCTGATGTGCTAG | 1.09
GACGGTATCGACCCTGGGGACGTGCTA | -0.562
GGCGGTATCCTTCTCCTGACGTGCTAG | -0.318
GACGGTATCCTTTACCTGACGTGCTAG | -0.102
TCAGGTTTCGGTCTCGGTTAGTGCTAG | 9.19
GACGGTTCCGATTTCGGGACGTGCTAG | 2.76
TTAGATATCTGTTTCGATTAGTGCTAG | 3.96
TCAGAAATCGGTGATCAGACTGTGCTA | -0.483
TTAGAATTCAGTCTCGATTAGTGCTAG | 1.7
TGGGCTACCGGGTCCCTCTTGTGCTAG | -0.549
TTGTCTTTTCATTTTCTTTAGTGCTAG | 1.35
TTAGGTATCGGACTGGGTAAGTGCTAG | 0.256

Study 2 — method: protein-binding microarray; molecule type: double-stranded DNA, one strand shown; matrix: in vitro; concentration: not given; reading: higher = stronger binding
Target: Myc proto-oncogene protein, bHLH-zipper, MAX partner unstated (MYC, Homo sapiens, UniProt P01106, residues 368-449)
Sequence of UniProt P01106 (368-449, looked up): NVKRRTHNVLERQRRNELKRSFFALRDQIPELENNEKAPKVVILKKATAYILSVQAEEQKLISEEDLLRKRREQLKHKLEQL
Notes: k-mer, scored over probes, only values ≥0.25
Strand | E-score
AGCCCCAC | 0.326
CGTGGCGA | 0.419
AACATGCG | 0.43
ACCACGCG | 0.484
CATGCGAC | 0.411
CTCCCACC | 0.275
ACACGCCA | 0.32
CGAGCACA | 0.329
CATCATGG | 0.292
CCCACACG | 0.374
AGGTGCGG | 0.257
GCATGGCA | 0.394
ATGCGAGG | 0.251
AGAGCATG | 0.383
ACATGCGG | 0.465
ACACCGCG | 0.28
AAGGCGTG | 0.288
CGTGGCCA | 0.413
CATGTTAC | 0.281
ACGCACGA | 0.408
CGCGCGGC | 0.364
GTGTAGAA | 0.275
ACATGCCC | 0.331
AAACATGC | 0.358

Study 3 — target: CCNF, cyclin fold, Cln2 fusion (human); method: yeast growth competition, sequencing; matrix: yeast; notes: strong parent motif; reference: not given; reading: higher = stronger binding
Parent: HIRA docking peptide (human); SLSKRKLELEVET
Change | normalised enrichment score
E10A | 0.807
V11A | 0.191
K6A | 0.836
R5A | -0.507
T13A | 2.2
K4A | 1.01
S3A | 4.42
R5K | 0.431
R5A L7A | -0.0933
R5K L9F | 3.63

Study 4 — method: universal PBM; molecule type: double-stranded DNA, one strand shown; matrix: in vitro; concentration: 600 nM; reading: higher = stronger binding
Target: Sal-like protein 4, full length isoform A (SALL4, Homo sapiens, UniProt Q9UJQ4, residues 1-1053)
Sequence of UniProt Q9UJQ4 (whole entry, looked up): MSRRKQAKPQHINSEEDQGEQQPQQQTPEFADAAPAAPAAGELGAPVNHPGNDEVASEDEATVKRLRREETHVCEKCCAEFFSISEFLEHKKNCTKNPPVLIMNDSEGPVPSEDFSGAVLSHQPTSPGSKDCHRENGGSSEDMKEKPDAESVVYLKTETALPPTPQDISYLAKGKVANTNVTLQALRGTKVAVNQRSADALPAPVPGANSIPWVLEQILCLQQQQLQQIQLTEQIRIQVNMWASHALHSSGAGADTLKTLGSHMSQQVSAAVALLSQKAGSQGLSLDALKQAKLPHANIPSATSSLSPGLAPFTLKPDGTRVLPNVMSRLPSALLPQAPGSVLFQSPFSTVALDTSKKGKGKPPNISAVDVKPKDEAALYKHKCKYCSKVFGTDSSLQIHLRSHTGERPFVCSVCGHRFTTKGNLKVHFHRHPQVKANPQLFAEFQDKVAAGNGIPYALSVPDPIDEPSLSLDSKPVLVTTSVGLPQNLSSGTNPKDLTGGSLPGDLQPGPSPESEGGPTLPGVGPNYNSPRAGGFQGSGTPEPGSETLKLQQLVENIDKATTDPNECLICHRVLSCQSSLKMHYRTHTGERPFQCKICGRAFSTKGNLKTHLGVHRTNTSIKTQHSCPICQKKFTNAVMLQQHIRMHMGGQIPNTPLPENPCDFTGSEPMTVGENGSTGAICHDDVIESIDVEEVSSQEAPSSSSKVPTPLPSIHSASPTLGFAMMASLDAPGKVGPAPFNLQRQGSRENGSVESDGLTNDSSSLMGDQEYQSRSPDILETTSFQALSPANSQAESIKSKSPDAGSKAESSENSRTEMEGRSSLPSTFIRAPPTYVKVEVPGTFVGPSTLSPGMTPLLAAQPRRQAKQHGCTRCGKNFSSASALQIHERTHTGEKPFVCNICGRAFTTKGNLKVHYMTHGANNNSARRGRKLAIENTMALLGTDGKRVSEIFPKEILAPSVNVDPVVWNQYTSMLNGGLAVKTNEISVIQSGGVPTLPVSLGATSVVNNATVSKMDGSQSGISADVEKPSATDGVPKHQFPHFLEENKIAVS
Notes: 8-mer, flanks averaged, mean of replicates
Strand | E-score
ACCTTTAG | 0.0822
TACACCGA | -0.133
GACTAATA | 0.311
AACGCCTC | -0.213
GAATCTGA | 0.0247
ATGAACAG | 0.12
AACAAACT | 0.206
GCCTTTAA | 0.124
CGGGATCA | -0.179
AGGTGGGG | -0.118
CTAGATAA | 0.239
ATAAAGTC | 0.264
GGTCACCA | -0.353
AGGGGGGG | -0.361
CTGTTGGC | -0.219
CGTAAGTA | 0.112
AGGATAGC | -0.108

Study 5 — method: RNA Bind-n-Seq; molecule type: RNA; matrix: in vitro; concentration: 365 nM; reference: no-protein control; reading: higher = stronger binding
Target: RNA binding protein fox-1 homolog 2, RRM domain, GST-SBP tag (RBFOX2, Homo sapiens, UniProt O43251-10, residues 100-194)
Notes: natural RNA segment, single round, ends assumed
All sequences stand within: GGGAGUUCUACAGUCCGACGAUC … UGGAAUUCUCGGGUGCCAA
Target sequence (chain): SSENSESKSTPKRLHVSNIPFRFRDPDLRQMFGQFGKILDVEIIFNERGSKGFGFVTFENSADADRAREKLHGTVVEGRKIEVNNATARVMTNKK
Strand | RBNS enrichment (R)
GAAGGGUCAUAAGCUCAAGGCCAUUUUUAGAAGCUUGUUGGGACACUGUCUCCAAUAGAAAGUGAAAAGAGAAGUGUGUGUAUAGCUCAGUGGUAGAGUGCUUGCCUGAU | 0.414
GCCGGAGCUAUUUAUGGCAAACACAUGCUUUUGUAUCUUGUCAUAGUCAUCCACAGAUGGCAAAACUGGACUUGAUUCUACUGGCAUGUAAGACAGGCGUGCUAGUGAGC | 0.47
ACUGCAGCCUCCACCACCUGAGUUCAAGCGAUUUUUCUGCCUCAACCUCUCCUGAGUAGCUGGGACUACAGGUGCAUGACACCACACCCAGCUAAUUUUUGUAUUUUUAU | 0.804
AGACCAAAAUGUUCCUUUUAGUCCUCAAUGUUUUAUAUUCUUUUUGUUUUGAAAAUCUCAAUUUUAAUCAGGGGUUUUAAAAGAAAAUUGAAAGCCUGAACCUCCAUUUU | 0.448
AGGGAGGCCCCUGGGUAUUGUCCUCCUACAAGGAAGAUCCUCUUUGUUUGUUCAAAGGACCAGUUUUCCUAGGCCAAAGAAGUCUCUUCCCCAUGUUAGUCCUAUGCCUU | 0.441
CCAAAGUCUUUCCCAGCACCUCUUGUAUUCAUUAUCAAAUAUAUACAUGUAAGUUUGAAGUAUUACUGUUUUCUCAGCAUGAAUUAAAAAUAUUCUGUAACUCAGCCAGG | 1.23
AGUUCUAGACCCCUCCAAUUUCUCAUCUGGUUGCAAGGCUUAUUUUUCUUUUGUACUUUCCUAUAGAUGCUAUAGCAUUUGAGUGUGGCAAUAUUUUUGUUGUGUAUAGA | 0.859
AAUCCCUGUAUUUGGCUCUUGCAGCCUCAGGCACUGUGCCUACUCUCCAGGUCAUGUCCCUGUGGUUCUGGGGCCACCACUUGUGUAAAAUAAAGUACAGCCUGGACGCU | 0.267
UCUUAUUUAAUUGUCCUGUUCCUUCCCACUCCCCGCCUCCUAGGAUGUUAGCCCAAGCUCAGGGUAGGCCCAGGGGGCUGGGAGAAAUGAAGCCACCCAUGGGGACUGGG | 0.658
UGACUGGCAGCUUCUCCUCCAGACUCCUAGCCCCGAGGUGCUGAUGGAGAUGCUCAAGGCCAGCAAGCCCCUCAGGCCAGCACUUCGCUUGCAGAAGCCAUCCAUUCACU | 0.755
GUCCCUCAGUAUUGAACUUGGCUGCUUGUGGGAUCCAGUCCUGGAGGACAGGCAUCAAGUUCUUAGCCUCUGUAGCUCUUAGCUUUCCCAUCUUUCCCUGCAAGGCCACA | 0.679
CCCUGGUUGUGGGGGAGAGUUCUAGAUCUGUGCCAUGAUCCAUACACUGGCUAAUAGAGUACAUAAUUUUUCCAUUUUCCAUUUUUUGUUUUUACUUACUACUGAAGGAU | 0.553

Study 6 — method: protein binding microarray; molecule type: double-stranded DNA, one strand shown; matrix: in vitro; concentration: not given; reference: not given; reading: higher = stronger binding
Target: Histone acetyltransferase KAT6A, winged helix 2, GST fusion (KAT6A, Homo sapiens, UniProt Q92794, residues 85-181)
Notes: 8-mer, flanks averaged, mean of 2 arrays, mostly near background
Residues (chain): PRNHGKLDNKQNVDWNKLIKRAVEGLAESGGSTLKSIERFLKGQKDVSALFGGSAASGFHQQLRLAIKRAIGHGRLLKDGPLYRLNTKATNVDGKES
Strand | E-score
GAAAAGCA | 0.0341
ACGATAAG | -0.126
CTAACAAA | 0.073
CAGGGCGA | 0.121
GAGGTCAC | 0.0554
AACCATGC | 0.0427
ACTTTATA | -0.115
GCTGCTGA | 0.00579
CTCTCAAC | 0.0524
ACCACGAT | -0.112
ACGTTCTA | -0.152
CCACTTTA | -0.0331
CCTTCTTA | 0.112
ATATTGGG | -0.066
AGCGGGCG | 0.158
CACCAGAG | -0.0306
CCGGGCCC | 0.22
ACTGTTGG | -0.129
AGAATTGC | -0.119
CGGTACAA | -0.127
GGCTTCCC | 0.0924
CCAACAAC | 0.0142
AGAATCAC | -0.00357
CTAACGTC | -0.0702
ACATGGGC | -0.0192

Some of these lines once more (study 3):
Change | normalised enrichment score
K4A | 1.01
S3A | 4.42
R5K | 0.431
R5A L7A | -0.0933
R5K L9F | 3.63
